Published values collected from several papers.
Each numbered part is a random draw from the data of one study; scales do not carry over between parts.

Block 1 — method: protein-binding microarray; molecule type: double-stranded DNA, one strand shown; sample: in vitro; tested at: 2200 nM top; setting: 60-bp whole probe; with: salmon DNA 0.4 mg/ml; reference: random background probes; direction: higher = stronger binding; constant ends, left off below: GCCTAGCAC … GTCTTGATTCGCTTGACGCTGCTG
Target: Interferon regulatory factor 7, full length, phosphomimetic (IRF7, Homo sapiens, UniProt Q92985, residues 1-503, S471D/S472D/S475D/S476D/S477D/S483D/S484D/S487D)
Residues (chain): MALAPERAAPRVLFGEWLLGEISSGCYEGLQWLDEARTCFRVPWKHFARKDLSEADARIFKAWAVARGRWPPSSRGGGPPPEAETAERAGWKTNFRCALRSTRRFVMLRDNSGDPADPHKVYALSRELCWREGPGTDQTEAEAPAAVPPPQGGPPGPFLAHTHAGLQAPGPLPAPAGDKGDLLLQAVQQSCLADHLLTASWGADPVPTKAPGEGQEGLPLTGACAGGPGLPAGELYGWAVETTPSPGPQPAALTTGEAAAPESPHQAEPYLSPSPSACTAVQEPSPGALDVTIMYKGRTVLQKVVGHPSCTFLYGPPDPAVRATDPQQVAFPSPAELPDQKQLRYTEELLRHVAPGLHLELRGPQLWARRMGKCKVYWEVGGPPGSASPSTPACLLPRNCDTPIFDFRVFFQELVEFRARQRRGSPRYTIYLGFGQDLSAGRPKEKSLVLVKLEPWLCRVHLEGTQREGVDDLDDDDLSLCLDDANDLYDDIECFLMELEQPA
Strand | fitted relative affinity
GACTGTATCGGACTGGGGACGTGCTAG | 0.221 z-score
TTGCTTTCCTTTATGTACTCGTGCTAG | 3.66 z-score
TTAGGACTGTGGACTGGGTTAGTGCTA | -0.892 z-score
TTAGAACTGAGTCACGATTAGTGCTAG | -0.766 z-score
GACGATCTCAGGCTGGAGACGTGCTAG | 0.127 z-score
TCATTACTTTCTATCTCACTGTGCTAG | 4.26 z-score
TTAGGTTTCCTTTCCTTTTAGTGCTAG | 5.7 z-score
TTCGATTTCAGTATCGATTAGTGCTAG | 2.05 z-score
GACCCTGGACACTTCACGTAGTGCTAG | -0.114 z-score
TCATTTTTCACTATTGCACTGTGCTAG | 2.92 z-score
GACGGACTGGGGTATTGGGACGTGCTA | -0.791 z-score
GGCGAACTGGGGACTGGAGACGTGCTA | -0.907 z-score
TCAGGACTCGGGTCTCCCACTGTGCTA | 0.748 z-score
ATTGGTCTTCACTTGGCAAAGTGCTAG | 0.834 z-score
GGATGTTGCAAATATTGCTAGGTGCTA | 0.0352 z-score
TTAGGTATAGACTTTCGGTTAGTGCTA | 4.82 z-score
TTAGACATCAGTCTCGATTAGTGCTAG | 0.0764 z-score
GACGAACTGAGTTTCGAGAAGTGCTAG | 0.663 z-score
GACGGTTTCCTTATCCAGACGTGCTAG | 2.75 z-score

Block 2 — method: protein-binding microarray; molecule type: double-stranded DNA, one strand shown; sample: in vitro; tested at: not given; direction: higher = stronger binding
Target: Protein C-ets-1 (ETS1, Homo sapiens, UniProt P14921, residues 1-441, K379A, full length assumed)
Setting: k-mer, scored over probes, only values ≥0.25
Construct (chain): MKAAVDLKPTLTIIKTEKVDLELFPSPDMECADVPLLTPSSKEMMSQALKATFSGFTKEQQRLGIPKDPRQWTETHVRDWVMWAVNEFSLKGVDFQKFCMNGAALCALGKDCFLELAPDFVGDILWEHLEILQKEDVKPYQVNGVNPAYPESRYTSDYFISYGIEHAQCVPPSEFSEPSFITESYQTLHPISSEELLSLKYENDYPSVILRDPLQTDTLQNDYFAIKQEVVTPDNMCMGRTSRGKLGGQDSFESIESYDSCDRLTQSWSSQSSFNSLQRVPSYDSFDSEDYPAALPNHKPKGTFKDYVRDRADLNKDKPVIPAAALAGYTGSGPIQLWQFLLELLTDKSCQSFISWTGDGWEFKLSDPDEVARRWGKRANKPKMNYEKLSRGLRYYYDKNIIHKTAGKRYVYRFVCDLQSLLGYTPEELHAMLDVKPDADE
Strand | E-score
AAATCACC | 0.258
ACCGCCGC | 0.26
TTATACAA | 0.261
GTGACAAC | 0.264
AACCGACA | 0.284
ATCCCCAT | 0.261
CATACATC | 0.265
AATACAAA | 0.302
ACATCCGC | 0.266
AGACGTCC | 0.258
ACGCAATC | 0.258
AGTAGACG | 0.286
GCGGGACA | 0.27
CGGCCGGA | 0.263
ACCGGAAC | 0.477
AACAGACA | 0.257
TAAACCTA | 0.251
ATACAGTA | 0.27
ACCGACGG | 0.334
ATACCGTG | 0.272
CGGTATTC | 0.277
CATGTCGG | 0.304
CCGGTCCC | 0.289

Block 3 — method: RNA Bind-n-Seq; molecule type: RNA; sample: in vitro; tested at: 365 nM; reference: no-protein control; direction: higher = stronger binding
Target: RNA binding protein fox-1 homolog 2, RRM domain, GST-SBP tag (RBFOX2, Homo sapiens, UniProt O43251-10, residues 100-194)
Setting: natural RNA segment, single round, ends assumed
Target sequence (chain): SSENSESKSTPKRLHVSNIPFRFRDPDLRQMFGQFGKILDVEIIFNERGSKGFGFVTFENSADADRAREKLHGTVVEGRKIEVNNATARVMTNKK
Strand | RBNS enrichment (R)
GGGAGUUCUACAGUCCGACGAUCCUCUGAAGUUAUAAUGCUUUGGUCUCUACAUUAGGGGCAAGAUCCAGUCUGAGAGAAGUCUCCUUUGAGAAGGGCCAAGAGGCUCUUUCCUGAGUGUUUGCUUUCGGUUUUGGAAUUCUCGGGUGCCAA | 0.82
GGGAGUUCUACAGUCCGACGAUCGGCACUGAGAUACCAGCGAGGAGGCUCCAGAGGGCACUCUGCUUGUUAUUAGAGAUUACCUCCUGAGAAAAAAGGUUCCGCUUGGAGCAGAGGGGCUGAAUAGCAGAAGGUGGAAUUCUCGGGUGCCAA | 0.939
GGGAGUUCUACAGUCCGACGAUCACAGAGACCACCUACCCACCACCUUCCCAGGUCACCUGCCUGGUCCCUGAAAGAAAGCAUUUGUGUGGGCAAUCCCAACAUGAAAUGUAGACAGCGUGAAUACGGACAGGUGGAAUUCUCGGGUGCCAA | 0.298
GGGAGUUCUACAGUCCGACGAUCCUCCCCCUUCUGCAUAGAGGAAAUCCCAGUGUGUGACAGCCCUUAAGGUUCCUGUGGACUUUGUGUACCAAGGUGUCCAGUGCCACCAACACUGACCUGGGGCCUUUACAUGGAAUUCUCGGGUGCCAA | 0.27
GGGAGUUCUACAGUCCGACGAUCGAUAGUUACUGUGGAGCAGCCAGUUCAUGGGGUCCCCCUUGGGGCCCCACACCCCGUCUCUCACCAAGAGUUACUGAUUUUGCUCAUCCACUUCCCUACACAUCUAUGGGUGGAAUUCUCGGGUGCCAA | 0.293
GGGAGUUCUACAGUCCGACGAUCUUUUUUGCUCCCAACUUCCUGACACUAGAUGAGUCAGCAGACAUGAGUCCUGACUUCCAAGAGAUUUUAGAAUCUAAGCUGGAUAGUACAGACAGGUAUAAAAGAUGGAUUGGAAUUCUCGGGUGCCAA | 0.319
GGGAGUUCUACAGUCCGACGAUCUACCCUGUCUUCUUGCCUGUGGCCCCCCUCCUUUCUGAAAGUUAGUUCUCUCCGCAUUCUUUAGGAGGAUUCAGGGGCGGCCUAGUGGAAGACAGUGGGCUCCAUGCCUCUGGAAUUCUCGGGUGCCAA | 0.986
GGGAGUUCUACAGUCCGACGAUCUGCUAAGGCCUGUGCUCCAAAGCAACGGGCUGGGGCAGCCUGCAGCUGCCCACCCAACCUGGUCUUCACACCAGAUUGCACAGGAUACUGGGUCUUGUCUAUCUUGAUGGUGGAAUUCUCGGGUGCCAA | 0.514

Block 4 — method: RNA Bind-n-Seq; molecule type: RNA; sample: in vitro; tested at: 20 nM; setting: 6-mer, flanks averaged, single round; with: 150 mM KCl; reference: input library; direction: higher = stronger binding
Target: TAR DNA-binding protein 43, full length, His tag (TARDBP, Homo sapiens, UniProt Q13148, residues 1-414)
Strand | 6-mer enrichment (R)
ACAGUU | 0.612
GCCAGA | 0.973
AUUAUC | 0.544
CCAGAG | 1.03
CUGACC | 0.64
GUCGGG | 3.34
GUCACG | 0.964
CUGAUA | 0.608
GAGAAU | 0.975
ACUGAG | 0.919
CUGGAA | 0.821
GAUGGC | 1.38
AGGCUA | 0.786
CCAGCA | 0.719
GGCUGG | 3.52
UUUUAG | 0.682
AUUGCG | 0.857
GAGGUU | 1.24
ACGGUG | 1.43
AAUACG | 0.698
GCUUCC | 0.625
CACACC | 0.672
AGCAGA | 0.899
GUACCU | 0.643

For quick reference, copied from above (block 3):
Strand | RBNS enrichment (R)
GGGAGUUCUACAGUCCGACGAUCCUCUGAAGUUAUAAUGCUUUGGUCUCUACAUUAGGGGCAAGAUCCAGUCUGAGAGAAGUCUCCUUUGAGAAGGGCCAAGAGGCUCUUUCCUGAGUGUUUGCUUUCGGUUUUGGAAUUCUCGGGUGCCAA | 0.82
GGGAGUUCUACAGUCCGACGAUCGGCACUGAGAUACCAGCGAGGAGGCUCCAGAGGGCACUCUGCUUGUUAUUAGAGAUUACCUCCUGAGAAAAAAGGUUCCGCUUGGAGCAGAGGGGCUGAAUAGCAGAAGGUGGAAUUCUCGGGUGCCAA | 0.939
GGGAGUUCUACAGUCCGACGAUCACAGAGACCACCUACCCACCACCUUCCCAGGUCACCUGCCUGGUCCCUGAAAGAAAGCAUUUGUGUGGGCAAUCCCAACAUGAAAUGUAGACAGCGUGAAUACGGACAGGUGGAAUUCUCGGGUGCCAA | 0.298
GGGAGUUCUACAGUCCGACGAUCCUCCCCCUUCUGCAUAGAGGAAAUCCCAGUGUGUGACAGCCCUUAAGGUUCCUGUGGACUUUGUGUACCAAGGUGUCCAGUGCCACCAACACUGACCUGGGGCCUUUACAUGGAAUUCUCGGGUGCCAA | 0.27
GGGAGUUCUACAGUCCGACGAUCGAUAGUUACUGUGGAGCAGCCAGUUCAUGGGGUCCCCCUUGGGGCCCCACACCCCGUCUCUCACCAAGAGUUACUGAUUUUGCUCAUCCACUUCCCUACACAUCUAUGGGUGGAAUUCUCGGGUGCCAA | 0.293
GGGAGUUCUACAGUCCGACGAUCUUUUUUGCUCCCAACUUCCUGACACUAGAUGAGUCAGCAGACAUGAGUCCUGACUUCCAAGAGAUUUUAGAAUCUAAGCUGGAUAGUACAGACAGGUAUAAAAGAUGGAUUGGAAUUCUCGGGUGCCAA | 0.319
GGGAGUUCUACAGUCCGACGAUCUACCCUGUCUUCUUGCCUGUGGCCCCCCUCCUUUCUGAAAGUUAGUUCUCUCCGCAUUCUUUAGGAGGAUUCAGGGGCGGCCUAGUGGAAGACAGUGGGCUCCAUGCCUCUGGAAUUCUCGGGUGCCAA | 0.986
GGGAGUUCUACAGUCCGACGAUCUGCUAAGGCCUGUGCUCCAAAGCAACGGGCUGGGGCAGCCUGCAGCUGCCCACCCAACCUGGUCUUCACACCAGAUUGCACAGGAUACUGGGUCUUGUCUAUCUUGAUGGUGGAAUUCUCGGGUGCCAA | 0.514
